Measurements of several laboratories.
Every numbered part comes from another study and shows a few of its results, in no order. Several values in a cell are separate wells, animals, samples, runs or records.

Study 1 — observed: thermal unfolding; technique: differential scanning fluorimetry; concentration: 5.5 µM; reading: higher = more unfolded
SMILES: C[C@@H]1CN(c2ccc(-c3cc(C(=O)NCCOCCOCCOCCOCCNC(=O)/C=C/c4[nH]cc(C(=O)N[C@@H](CC(N)=O)c5ccc(F)c(Cl)c5)c4-c4ccc(Cl)cc4F)ccc3F)cc2NC(=O)c2c[nH]c(=O)cc2C(F)(F)F)C[C@H](C)N1C
WDR5: WD repeat-containing protein 5 (WDR5, Homo sapiens, UniProt P61964)
DCAF1: DDB1- and CUL4-associated factor 1 (DCAF1, Homo sapiens, UniProt Q9Y4B6)
Chain of UniProt Q9Y4B6 (whole entry, looked up): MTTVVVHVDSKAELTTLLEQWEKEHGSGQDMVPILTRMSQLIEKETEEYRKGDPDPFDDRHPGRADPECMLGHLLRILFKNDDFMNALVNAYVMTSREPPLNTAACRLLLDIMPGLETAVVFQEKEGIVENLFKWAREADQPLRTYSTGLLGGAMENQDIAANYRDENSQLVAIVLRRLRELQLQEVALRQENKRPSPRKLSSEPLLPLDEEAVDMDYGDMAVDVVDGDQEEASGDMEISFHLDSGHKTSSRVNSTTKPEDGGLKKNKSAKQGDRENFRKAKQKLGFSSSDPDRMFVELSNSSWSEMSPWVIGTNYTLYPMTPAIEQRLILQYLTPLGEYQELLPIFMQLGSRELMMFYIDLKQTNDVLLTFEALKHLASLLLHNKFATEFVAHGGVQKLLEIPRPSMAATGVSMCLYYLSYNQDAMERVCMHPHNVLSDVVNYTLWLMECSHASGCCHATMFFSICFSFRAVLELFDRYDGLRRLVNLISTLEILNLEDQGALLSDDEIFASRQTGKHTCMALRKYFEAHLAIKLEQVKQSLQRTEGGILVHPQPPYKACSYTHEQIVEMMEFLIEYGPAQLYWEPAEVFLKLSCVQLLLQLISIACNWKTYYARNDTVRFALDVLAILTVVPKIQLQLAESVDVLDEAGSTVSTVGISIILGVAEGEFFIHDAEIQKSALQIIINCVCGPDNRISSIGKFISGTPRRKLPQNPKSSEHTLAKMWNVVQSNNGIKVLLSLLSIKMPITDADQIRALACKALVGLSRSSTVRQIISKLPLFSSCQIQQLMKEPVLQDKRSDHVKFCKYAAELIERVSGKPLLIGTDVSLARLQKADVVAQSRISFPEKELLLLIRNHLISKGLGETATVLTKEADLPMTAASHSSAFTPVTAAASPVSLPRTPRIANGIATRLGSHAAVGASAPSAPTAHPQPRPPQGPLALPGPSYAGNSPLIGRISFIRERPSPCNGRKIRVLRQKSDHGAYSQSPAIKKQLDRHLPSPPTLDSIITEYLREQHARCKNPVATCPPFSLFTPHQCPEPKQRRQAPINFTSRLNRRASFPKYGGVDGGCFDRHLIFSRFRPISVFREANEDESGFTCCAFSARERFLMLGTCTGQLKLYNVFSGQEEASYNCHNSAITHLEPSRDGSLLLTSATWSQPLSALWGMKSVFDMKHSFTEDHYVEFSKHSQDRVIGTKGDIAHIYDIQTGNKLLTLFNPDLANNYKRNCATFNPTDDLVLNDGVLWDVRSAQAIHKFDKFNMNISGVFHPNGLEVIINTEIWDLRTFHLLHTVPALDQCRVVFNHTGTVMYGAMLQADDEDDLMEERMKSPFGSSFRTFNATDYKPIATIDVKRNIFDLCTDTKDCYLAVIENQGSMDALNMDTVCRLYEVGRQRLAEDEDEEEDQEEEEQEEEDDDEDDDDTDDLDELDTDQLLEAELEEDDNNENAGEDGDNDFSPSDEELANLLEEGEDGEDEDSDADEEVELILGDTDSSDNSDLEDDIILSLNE
target | temperature | SYPRO Orange fluorescence [a.u.]
WDR5 | 79.41 °C | 38700
DCAF1 | 37.6 °C | 10800
DCAF1 | 54.01 °C | 19500
WDR5 | 27.4 °C | 12900
DCAF1 | 61.01 °C | 45600
DCAF1 | 40.8 °C | 11800
WDR5 | 55.01 °C | 16800
DCAF1 | 49.4 °C | 14800

Study 2 — time: 60 min
Structure (SMILES): NC/C(=C\F)COc1cccc(Cn2c(=S)[nH]c(=O)c3[nH]cnc32)c1
sample | remaining compound
dog liver microsomes | 86.7% and 84.8% and 71.4% and 76.6%
human liver microsomes | 88.2% and 76.7% and 72.8% and 76.2% and 77.2% and 58%
dog hepatocytes | 78.3% and 71.9% and 78.1% and 77.8%
rat hepatocytes | 103% and 88.6% and 81.9% and 88.1%

Study 3
SMILES: Cn1cc(-c2cccc(CN3CCC4(CC3)COc3c4ccc4c3CN([C@H]3CCC(=O)NC3=O)C4=O)c2)cn1
sample | time | setting | remaining compound
mouse plasma | 0 min |  | 100%
rat plasma | 0 min |  | 100%
rat plasma | 5 min | mean | 117%
rat plasma | 15 min | mean | 114%

Other studies, line by line
Structure (SMILES) | target | test | system | conditions | scale | endpoint | value
Cc1nc(C)c(C=[N+]([O-])C(C)(C)C)nc1C | CDK5 | Western blot | MPTP mouse model | 30 mg/kg, unit not given | relative to: β-actin | CDK5 protein level | 116 and 123 and 174 and 145

Excerpt of the above (study 1):
target | temperature | SYPRO Orange fluorescence [a.u.]
WDR5 | 55.01 °C | 16800
DCAF1 | 37.6 °C | 10800
DCAF1 | 54.01 °C | 19500
